Published values of several laboratories.
± marks the error that the study gave.

COC1C=COC2(C)Oc3c(C)c(O)c4c(c3C2=O)C2=NC3(CCN(CC(C)C)CC3)NC2=C(NC(=O)C(C)=CC=CC(C)C(O)C(C)C(O)C(C)C(OC(=O)c2cccnc2)C1C)C4=O (stereo not drawn)
fraction unbound (caseum): 0.0039

CCNCCOc1c(I)cc(C(=O)c2c(CCC(C)O)oc3ccccc23)cc1I (stereo not drawn)
fraction unbound (ultracentrifugation; human plasma; 2 h): 0.018 ± 0.003

COC1C=COC2(C)Oc3c(C)c(O)c4c(c3C2=O)C2=NC3(CCN(CC(C)C)CC3)NC2=C(NC(=O)C(C)=CC=CC(C)C(O)C(C)C(O)C(C)C(OC(=O)Nc2cscn2)C1C)C4=O (stereo not drawn)
fraction unbound (caseum): 0.0017

CCN(CC)CC#CCNc1ccnc2cc(Cl)ccc12
fraction unbound (equilibrium dialysis; human plasma; 1 µM, 5 h, pH 7.4): 0.025

COC1C=COC2(C)Oc3c(C)c(O)c4c(c3C2=O)C2=NC3(CCN(CC(C)C)CC3)NC2=C(NC(=O)C(C)=CC=CC(C)C(O)C(C)C(O)C(C)C(OC(=O)Nc2cccnn2)C1C)C4=O (stereo not drawn)
fraction unbound (caseum): 0.0096

COc1ccc2c(c1OCc1ccccc1)C[C@@H](C(=O)O)N(c1nc3ccc(C#N)cc3o1)C2
fraction unbound (equilibrium dialysis; rat plasma; 1 µM, 6 h, pH 7.4): < 0.001

Cc1ncc2c(n1)CN(C(=O)Nc1nc(-c3cccs3)ccc1N)C2
fraction unbound (in vitro; mouse plasma): 0.251

NC(=O)c1c(F)ccc(OCc2nc3cc(Cl)cnc3s2)c1F
fraction unbound (equilibrium dialysis; human plasma; 10 µM): 0.1 ± 0.03

COC1C=COC2(C)Oc3c(C)c(O)c4c(c3C2=O)C2=NC3(CCN(CC(C)C)CC3)NC2=C(NC(=O)C(C)=CC=CC(C)C(O)C(C)C(O)C(C)C(OC(=O)Nc2cnccn2)C1C)C4=O (stereo not drawn)
fraction unbound (human plasma): 0.056

CC(=O)c1cnc(N)nc1N1CC[C@H]1c1nn2ccc(Cl)c2c(=O)n1-c1ccccc1
fraction unbound (equilibrium dialysis; rat plasma; 0.5-25 µM): 0.09 to 0.12

Brc1ccccc1-c1nnc(CSc2nnnn2-c2ccccc2)o1
fraction unbound (equilibrium dialysis; rat plasma): 0.046

CCNCC#CCNc1ccnc2cc(Cl)ccc12
fraction unbound (equilibrium dialysis; CD-1 mouse plasma; 1 µM, 5 h, pH 7.4): 0.155

COc1ccccc1NC(=O)OC1C(C)C(OC)C=COC2(C)Oc3c(C)c(O)c4c(c3C2=O)C2=NC3(CCN(CC(C)C)CC3)NC2=C(NC(=O)C(C)=CC=CC(C)C(O)C(C)C(O)C1C)C4=O (stereo not drawn)
fraction unbound (rapid equilibrium dialysis; mouse plasma): 0.001

Cc1ccc(O)c2c3c(nn12)CCC(C)(NC(=O)c1ccc(-n2cnc4cc(C(=O)O)ccc42)cc1Cl)C3 (stereo not drawn)
fraction unbound (equilibrium dialysis; rat plasma): 0.006

CCCCc1oc2ccccc2c1C(=O)c1cc(I)c(OCCO)c(I)c1
fraction unbound (ultracentrifugation; human plasma; 2 h): 0.049 ± 0.017

O=C(Cc1ccccc1)Nc1nc2ccccc2n1Cc1ccccc1
fraction unbound (rat liver microsomes; 0.5 µM, 1 mg/mL protein): 24.2%

COC1C=COC2(C)Oc3c(C)c(O)c4c(c3C2=O)C2=NC3(CCN(CC(C)C)CC3)NC2=C(NC(=O)C(C)=CC=CC(C)C(O)C(C)C(O)C(C)C(OC(=O)c2cncnc2)C1C)C4=O (stereo not drawn)
fraction unbound (caseum): 0.0118

CCCCc1oc2ccccc2c1C(=O)c1cc(I)c(OCCN)c(I)c1
fraction unbound (ultracentrifugation; human plasma; 2 h): 0.042 ± 0.004

CO[C@H]1/C=C/O[C@@]2(C)Oc3c(C)c(O)c4c(c3C2=O)C2=NC3(CCN(CC(C)C)CC3)NC2=C(NC(=O)/C(C)=C\C=C\[C@H](C)[C@H](O)[C@@H](C)[C@@H](O)[C@@H](C)[C@H](OC(=O)c2cccnc2)[C@@H]1C)C4=O
fraction unbound (plasma): 2.05%

CC(NC(=O)OC1OC(C(=O)O)C(O)C(O)C1O)c1cc(Cl)ccc1Cn1c(=S)[nH]c(=O)c2[nH]ccc21 (stereo not drawn)
fraction unbound (equilibrium dialysis; human plasma; 1 µM, 16 h, 37 °C): 0.149 ± 0.024%

CCCCc1oc2ccccc2c1C(=O)c1cc(I)c(O)c(I)c1
fraction unbound (ultracentrifugation; human liver microsomes 0.25 mg/mL protein; 2 h, pH 7.4): 0.05 ± 0.02
